Assay results from different studies.
Lines come from different studies, so protocols differ. Numbers after ± are the reported error.
B1: enzyme (Lactiplantibacillus plantarum, UniProt Q06115); chain CTAITYQSYNNYFGRNFDYEISYNEMVTITPRKYPLVFRKVENLDHHYAIIGITADVESYPLYYDAMNEKGLCIAGLNFAGYADYKKYDADKVNITPFELIPWLLGQFSSVREVKKNIQKLNLVNINFSEQLPLSPLHWLVADKQESIVIESVKEGLKIYDNPVGVLTNNPNFDYQLFNLNNYRALSNSTPQNSFSEKVDLDSYSRGMGGLGLPGDLSSMSRFVRAAFTKLNSLSMQTESGSVSQFFHILGSVEQQKGLCEVTDGKYEYTIYSSCCDMDKGVYYYRTYDNSQINSVSLNHEHLDTTELISYPLRSEAQYYAVN
Sequence of UniProt P10632 (whole entry, looked up): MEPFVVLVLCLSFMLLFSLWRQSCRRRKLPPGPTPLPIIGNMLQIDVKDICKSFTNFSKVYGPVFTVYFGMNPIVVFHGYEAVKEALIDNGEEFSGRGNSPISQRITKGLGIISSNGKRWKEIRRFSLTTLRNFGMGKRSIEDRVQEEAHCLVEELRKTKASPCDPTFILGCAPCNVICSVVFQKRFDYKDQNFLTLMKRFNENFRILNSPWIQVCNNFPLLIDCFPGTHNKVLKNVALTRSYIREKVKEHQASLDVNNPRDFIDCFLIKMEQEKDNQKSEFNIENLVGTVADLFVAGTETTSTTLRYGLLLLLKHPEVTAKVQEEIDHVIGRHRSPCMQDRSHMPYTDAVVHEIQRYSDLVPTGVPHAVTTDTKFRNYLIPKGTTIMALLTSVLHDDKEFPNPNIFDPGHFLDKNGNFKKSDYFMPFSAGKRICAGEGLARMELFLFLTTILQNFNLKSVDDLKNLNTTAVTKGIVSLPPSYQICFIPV
Sequence of UniProt P35503 (whole entry, looked up): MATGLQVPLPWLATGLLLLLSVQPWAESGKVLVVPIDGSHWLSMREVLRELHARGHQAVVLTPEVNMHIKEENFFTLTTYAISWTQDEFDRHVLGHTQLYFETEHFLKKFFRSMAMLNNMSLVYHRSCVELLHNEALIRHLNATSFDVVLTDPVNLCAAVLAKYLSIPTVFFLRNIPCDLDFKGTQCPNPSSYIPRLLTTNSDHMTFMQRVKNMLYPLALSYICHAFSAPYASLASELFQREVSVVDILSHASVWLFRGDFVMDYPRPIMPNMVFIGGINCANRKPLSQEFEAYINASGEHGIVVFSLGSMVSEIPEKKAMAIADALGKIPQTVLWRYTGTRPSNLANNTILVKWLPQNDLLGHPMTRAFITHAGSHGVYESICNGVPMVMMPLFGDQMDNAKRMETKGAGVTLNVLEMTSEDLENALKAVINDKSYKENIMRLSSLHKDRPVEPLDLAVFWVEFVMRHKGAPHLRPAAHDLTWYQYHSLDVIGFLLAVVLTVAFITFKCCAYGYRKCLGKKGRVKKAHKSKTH
Sequence of UniProt P22309 (whole entry, looked up): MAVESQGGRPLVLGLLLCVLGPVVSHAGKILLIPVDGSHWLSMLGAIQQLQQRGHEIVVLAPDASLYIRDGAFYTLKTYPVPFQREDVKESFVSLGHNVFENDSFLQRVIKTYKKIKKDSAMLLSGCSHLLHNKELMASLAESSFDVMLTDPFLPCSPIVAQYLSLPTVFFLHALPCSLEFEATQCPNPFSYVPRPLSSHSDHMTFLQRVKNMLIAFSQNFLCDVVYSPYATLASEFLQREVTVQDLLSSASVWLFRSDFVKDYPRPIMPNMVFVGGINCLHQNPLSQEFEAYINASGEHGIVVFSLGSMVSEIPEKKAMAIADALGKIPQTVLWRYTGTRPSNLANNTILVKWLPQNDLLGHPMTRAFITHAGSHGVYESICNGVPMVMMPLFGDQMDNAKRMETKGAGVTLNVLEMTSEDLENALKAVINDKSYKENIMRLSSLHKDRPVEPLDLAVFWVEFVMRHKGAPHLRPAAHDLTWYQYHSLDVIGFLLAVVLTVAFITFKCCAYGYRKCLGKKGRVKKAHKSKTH

For `B1 (enzyme)`, the K0.5 was 2350 µM (C[C@H](CCC(=O)N[C@@H](Cc1ccc(O)cc1)C(=O)O)[C@H]1CC[C@H]2[C@@H]3[C@H](O)C[C@@H]4C[C@H](O)CC[C@]4(C)[C@H]3C[C@H](O)[C@]12C; steady-state kinetics; pH 6.2, 37 °C).
With `ACEEQNPWARYLEWLFPTETLLLEL` the contrast index was 19.1 ± 7.2 (ex vivo fluorescence imaging; peptide, BALB/c mice, 4T1 tumour-bearing; intravenous, 5 nmol, 24 h post-injection, background-corrected mean fluorescence; baseline: tumour over muscle).
With `colistin` the MIC was at most 0.5 µg/mL (Acinetobacter baumannii; broth microdilution; clinical isolate RKI-No_272/16).
`ACEQNPIYWARYADWLFTTPLLLLDLALLVDADEGT` — result for “mean fluorescence intensity”: 502 ± 85.5 a.u. (ex vivo fluorescence imaging; peptide, BALB/c mice, 4T1 tumour-bearing, liver; intravenous, 5 nmol, 24 h post-injection; higher = more uptake).
`pegcetacoplan`: “number of TEAEs” 427 (measured: all TEAEs; patients with PNH; dose not given, phase Ib trial).
`insulin aspart` — result for “time to late 50 % Cmax”: 154 min (ELISA, measured: total insulin aspart; human, type 1 diabetes, serum; subcutaneous, dose not given, least squares mean, single dose).
For `ACDDQNPWRAYLDLLFPTDTLLLDLLW`, the contrast index was 18.8 ± 4.2 (ex vivo fluorescence imaging; peptide, BALB/c mice, 4T1 tumour-bearing; intravenous, 5 nmol, 24 h post-injection, background-corrected mean fluorescence; baseline: tumour over muscle).
With `UGT1A3 (Homo sapiens, UniProt P35503)` the Vmax/Km was 11 µL/min/mg (O=c1cc(C(F)(F)F)c2ccc(O)cc2o1; steady-state kinetics; 37 °C, not purified).
`insulin degludec` — result for “apparent volume of distribution”: 37.6 ± 9.1 L (human; subcutaneous, 0.4 IU/kg, 3 FC level, single dose, reference formulation).
With `Ubiquitin fragment (Homo sapiens)` the pKa was 11.6 (NMR, measured: Lys29).
`ptcA (Enterococcus faecalis, UniProt Q837U7)` gave a K0.5 of 101 µM (NC(=O)OP(=O)(O)O; steady-state kinetics; pH 6.9, 22 °C, with: putrescine 5.0 mM).
`UGT1A1 (Homo sapiens, UniProt P22309)` gave a Vmax/Km of 4.1 µL/min/mg (C[C@]12CC[C@@H]3c4ccc(O)cc4CC[C@H]3[C@@H]1CC[C@@H]2O; steady-state kinetics; 37 °C, not purified).
`GSGAGKETSF`: “normalised SPR binding response” 0 normalised RU (human MAGI1-2/6 PDZ construct (MBP fusion); surface plasmon resonance; peptide; concentration not given; higher = stronger binding).
Under cytotoxicity, `secretory leukocyte protease inhibitor` is recorded as “not toxic” (RAW264.7; MTT; 0.1 to 10 µg/mL, 24 h; baseline: vehicle).
The Vmax/Km of `CYP2C8 (Homo sapiens, UniProt P10632)` is reported as 37.5 µL/min/mg (CC(C)=CCc1cc2c(cc1O)O[C@H](c1ccc(O)cc1)CC2=O; steady-state kinetics; pH 7.4, 37 °C).
`GSGAGKETYY` gave a binding intensity of -0.00453 (human SCRIB PDZ3-4 tandem (MBP fusion); automated holdup; peptide, purified PDZ protein; concentration not given, unit not given; baseline: biotin control resin, higher = stronger binding).

Some of these lines once more:
The Vmax/Km of `CYP2C8 (Homo sapiens, UniProt P10632)` is reported as 37.5 µL/min/mg (CC(C)=CCc1cc2c(cc1O)O[C@H](c1ccc(O)cc1)CC2=O; steady-state kinetics; pH 7.4, 37 °C).
For `ACDDQNPWRAYLDLLFPTDTLLLDLLW`, the contrast index was 18.8 ± 4.2 (ex vivo fluorescence imaging; peptide, BALB/c mice, 4T1 tumour-bearing; intravenous, 5 nmol, 24 h post-injection, background-corrected mean fluorescence; baseline: tumour over muscle).
`GSGAGKETYY` gave a binding intensity of -0.00453 (human SCRIB PDZ3-4 tandem (MBP fusion); automated holdup; peptide, purified PDZ protein; concentration not given, unit not given; baseline: biotin control resin, higher = stronger binding).
